# Measurements collected from several papers.
# Lines come from different studies, so protocols differ. “And” joins repeats or separate records; there may be more than shown.
# UniProt P41143, sequence (whole entry, unmodified, looked up): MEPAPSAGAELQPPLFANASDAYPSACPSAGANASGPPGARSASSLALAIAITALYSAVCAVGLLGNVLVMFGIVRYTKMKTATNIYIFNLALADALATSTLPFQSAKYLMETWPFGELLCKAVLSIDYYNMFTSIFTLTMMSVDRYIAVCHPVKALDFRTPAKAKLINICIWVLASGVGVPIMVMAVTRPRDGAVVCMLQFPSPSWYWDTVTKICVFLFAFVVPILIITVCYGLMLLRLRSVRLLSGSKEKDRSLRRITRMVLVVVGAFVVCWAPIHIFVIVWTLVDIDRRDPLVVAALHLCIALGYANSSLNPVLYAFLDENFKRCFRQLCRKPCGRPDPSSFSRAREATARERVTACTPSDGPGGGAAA
# UniProt Q96SW2, sequence (whole entry, looked up): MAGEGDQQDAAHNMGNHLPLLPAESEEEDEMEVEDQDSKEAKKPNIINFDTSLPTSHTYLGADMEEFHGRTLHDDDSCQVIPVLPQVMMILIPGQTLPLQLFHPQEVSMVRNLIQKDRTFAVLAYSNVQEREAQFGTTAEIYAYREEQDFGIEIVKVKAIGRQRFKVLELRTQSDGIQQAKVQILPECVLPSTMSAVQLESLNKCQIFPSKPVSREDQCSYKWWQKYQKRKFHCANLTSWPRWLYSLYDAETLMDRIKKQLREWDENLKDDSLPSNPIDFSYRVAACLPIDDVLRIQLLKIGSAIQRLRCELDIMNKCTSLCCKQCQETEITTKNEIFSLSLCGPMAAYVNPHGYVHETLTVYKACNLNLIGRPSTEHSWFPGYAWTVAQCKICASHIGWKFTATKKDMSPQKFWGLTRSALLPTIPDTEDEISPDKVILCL
# UniProt Q9UKS7, sequence (whole entry, looked up): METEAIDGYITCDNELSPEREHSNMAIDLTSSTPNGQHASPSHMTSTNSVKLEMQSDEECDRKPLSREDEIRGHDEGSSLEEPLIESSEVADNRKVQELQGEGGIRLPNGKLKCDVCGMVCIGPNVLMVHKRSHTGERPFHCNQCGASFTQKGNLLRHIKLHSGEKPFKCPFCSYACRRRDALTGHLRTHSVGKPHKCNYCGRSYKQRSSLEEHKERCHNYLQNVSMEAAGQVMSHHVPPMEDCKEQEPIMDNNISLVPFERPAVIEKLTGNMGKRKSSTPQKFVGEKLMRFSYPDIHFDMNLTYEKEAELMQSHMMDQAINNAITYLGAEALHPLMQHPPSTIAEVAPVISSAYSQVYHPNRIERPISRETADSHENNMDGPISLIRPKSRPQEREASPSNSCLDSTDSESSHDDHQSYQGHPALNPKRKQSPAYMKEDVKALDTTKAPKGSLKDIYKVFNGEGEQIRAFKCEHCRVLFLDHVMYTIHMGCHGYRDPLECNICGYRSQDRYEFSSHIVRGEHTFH
Compound,target or system,test,system,setting,scale,measurement,result
C=CCN1C(=O)C(O)(C(=O)O)Oc2cc(F)ccc21 (centres unmarked),Arabidopsis thaliana,hypocotyl length,"Col-0, seedlings",12.5 µg/mL,,inhibition,13.1%
Cn1cc(-c2cccc(CN3CCC4(CC3)COc3c4ccc4c3CN([C@H]3CCC(=O)NC3=O)C4=O)c2)cn1,HepG2,,,concentration not given,reference: vehicle,viability,82.3%
N=C(N)NCCCCCCN1CCC23c4c5ccc(O)c4OC2c2nc4ccccc4cc2CC3(O)C1C5 (centres unmarked),"Delta-type opioid receptor, with Gi1 (OPRD1, Homo sapiens, UniProt P41143, S311A)","G protein activation, agonist",,,,EC50,1.62 nM
O=C1CCC(N2Cc3c(ccc4c3OCC43CCN(Cc4ccccc4)CC3O)C2=O)C(=O)N1 (centres unmarked),"CRBN/Zinc finger protein Helios (Homo sapiens, UniProt Q96SW2+Q9UKS7)","degrader, HiBiT",HEK293,1111.11 nM,,protein remaining,81.5%
CCCCC[C@@H]1CC(=O)N[C@@H](C(C)C)C(=O)N[C@H](CCCNC(=N)N)C(=O)N[C@@H](C(C)C)C(=O)NCC(=O)N2CCC[C@H]2C(=O)N[C@@H](CC(C)C)C(=O)N[C@H](CCCNC(=N)N)C(=O)N[C@@H](CCC(=O)O)C(=O)N[C@H](Cc2ccc(O)cc2)C(=O)N[C@H](Cc2c[nH]c3ccccc23)C(=O)NCCCC(=O)O1,Staphylococcus aureus,,USA300,"2 x MIC, 0 min",,viable cells,4.1e+08 CFU/mL and 4.7e+08 CFU/mL and 3.9e+08 CFU/mL

# Some of these lines once more:
Compound,target or system,test,system,setting,scale,measurement,result
CCCCC[C@@H]1CC(=O)N[C@@H](C(C)C)C(=O)N[C@H](CCCNC(=N)N)C(=O)N[C@@H](C(C)C)C(=O)NCC(=O)N2CCC[C@H]2C(=O)N[C@@H](CC(C)C)C(=O)N[C@H](CCCNC(=N)N)C(=O)N[C@@H](CCC(=O)O)C(=O)N[C@H](Cc2ccc(O)cc2)C(=O)N[C@H](Cc2c[nH]c3ccccc23)C(=O)NCCCC(=O)O1,Staphylococcus aureus,,USA300,"2 x MIC, 0 min",,viable cells,4.1e+08 CFU/mL and 4.7e+08 CFU/mL and 3.9e+08 CFU/mL
